Measured values pooled from the literature.
Numbered parts are unrelated; each lists some results of a single study.

Sample 1
Target: PABPC1L2, full length, GST fusion (mouse, UniProt A0ABA7IW68)
Method: RNAcompete
Molecule type: RNA
Matrix: in vitro
Concentration: 20 nM
Setting: 7-mer, probes averaged, single round
Relative to: mean of 7-mers
Direction: higher = stronger binding
Target sequence (chain): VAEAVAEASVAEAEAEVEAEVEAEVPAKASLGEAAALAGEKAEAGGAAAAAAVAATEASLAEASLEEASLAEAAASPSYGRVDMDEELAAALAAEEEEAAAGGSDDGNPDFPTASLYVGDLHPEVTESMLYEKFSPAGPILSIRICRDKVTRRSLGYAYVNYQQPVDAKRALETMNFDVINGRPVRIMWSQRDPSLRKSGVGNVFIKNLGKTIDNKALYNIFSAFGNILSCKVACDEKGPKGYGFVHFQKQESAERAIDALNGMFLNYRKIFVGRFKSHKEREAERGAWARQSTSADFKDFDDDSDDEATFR
Strand	7-mer Z-score
AGUAACA	0.151
AUGAUAU	-0.106
GCCAACG	-0.0391
CACGAGA	0.175
CGUGCCC	-0.291
AAUAAAG	3.07
GGUACUU	-0.117
CACCUUG	-0.193
ACCAGCC	-0.309
AGCAACG	-0.021
GGGAGAC	0.122
AUUGAAU	-0.0627
CCACCUU	-0.253
CACUGGG	-0.0101
CCCGGUU	-0.445
CUAAAUU	0.441
GAUUUCU	-0.358
GCGGUCG	-0.0754
CGCGAUC	-0.257
GACGUCG	-0.235
GGUAACA	0.298
ACCGCCC	-0.383
GUUUGGU	-0.429
AAAACCU	2.31
GAGUAUG	-0.106

Sample 2
Target: Prothrombin, mature alpha-thrombin (F2, Homo sapiens, UniProt P00734)
Method: aptamer microarray, sandwich
Molecule type: DNA with 2'F-ANA
Matrix: in vitro
Concentration: 200 nM
Setting: whole 15-mer aptamer, many near background
Added: Cy3 exosite-II aptamer, 400 nM
Direction: higher = stronger binding
Strand: GGTTGGTGTGGTTGG
Modification	mean fluorescence intensity [a.u.]
2'F-ANA at 1 2 3 4 6 8 9 11 12 13 14 15	64
2'F-ANA at 1 4 5 6 7 8 9 11 13 15	65.3
2'F-ANA at 10 11 13 15	147
2'F-ANA at 2 4 6 7 13	172
2'F-ANA at 1 5 7 10 11	47.2
2'F-ANA at 2 3 4 5 7 13 15	60
2'F-ANA at 5 6 8 9 10 12 14	50.9
2'F-ANA at 2 7 8 9 10 13	124
2'F-ANA at 2 3 5 9 10 11 15	55.7
2'F-ANA at 1 7 11 12	358
2'F-ANA at 1 2 3 4 5 6 7 8 10 12 14 15	46.3
2'F-ANA at 1 2 6 7 9 10 11 12 15	61.3
2'F-ANA at 2 3 8 9 11 15	721
2'F-ANA at 1 2 5 6 7 8 9 12 13	78.2
2'F-ANA at 1 2 4 5 6 7 9 11 13 14	48.2
2'F-ANA at 1 2 3 4 5 8 9 10 11 14 15	46.1
2'F-ANA at 4 6 9 14	75.4
2'F-ANA at 4 5 6 11 12 13 14	133
2'F-ANA at 1 2 3 9 10 11 12 13 14 15	53.7
2'F-ANA at 1 3 6 10 11 14 15	67
2'F-ANA at 3 4 7 8 11 12 13	921

Sample 3
Target: RING finger protein unkempt homolog, zinc fingers 1-6, GST-SBP tag (UNK, Homo sapiens, UniProt Q9C0B0, residues 30-357)
Method: RNA Bind-n-Seq
Molecule type: RNA
Matrix: in vitro
Concentration: not given
Setting: RNA with constant flanks, human-mouse chimeric sites, ends assumed
Relative to: input RNA pool
Direction: higher = stronger binding
Target sequence (chain): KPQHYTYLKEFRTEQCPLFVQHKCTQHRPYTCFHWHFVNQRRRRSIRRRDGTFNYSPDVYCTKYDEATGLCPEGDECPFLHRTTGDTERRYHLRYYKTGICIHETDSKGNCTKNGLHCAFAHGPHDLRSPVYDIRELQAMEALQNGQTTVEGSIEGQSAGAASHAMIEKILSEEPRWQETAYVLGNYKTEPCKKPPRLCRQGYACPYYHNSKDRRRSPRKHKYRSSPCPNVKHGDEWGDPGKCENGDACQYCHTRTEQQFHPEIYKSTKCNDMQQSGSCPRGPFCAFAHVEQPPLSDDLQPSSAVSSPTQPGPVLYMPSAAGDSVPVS
Strand	bound/input enrichment [ratio]
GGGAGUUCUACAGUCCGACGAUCGCGGCAGAAUCAUGGAGGACAUAAUGCAGCUCCCCAAGUCGCGCAUCAACGCCAGCAUGUUACCACAGUAUAUCGACCGGCCCGUGUGCUUCGUGGGGAAGCUGGAAAAGAUUCAUCCCACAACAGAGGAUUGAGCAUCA	0.0887
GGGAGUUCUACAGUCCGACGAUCACCUCCCCCUCCCGCCUCACCCCACCCAAGAAAGAAAAAAGUGUGUUGGCGUUUCUUUUCCUUCCCCAUACAAAGUGAUUACAGUUUCCCCCGCAAGGGUCUAUCGAAGGGCUUGACGGACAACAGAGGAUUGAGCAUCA	1.08
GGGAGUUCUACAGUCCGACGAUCCCCUCCCCGGGCCACCCACCCCUCCCGGCUCCCCGCCGAGAUCCAGGUUUCUUCUUAUUUCAUAGCAAGCCAGAACAAUGUUCUACGCACAUUUUGUUCUCAGUAAACGAGGGCCUCUGGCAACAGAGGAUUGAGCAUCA	0.747
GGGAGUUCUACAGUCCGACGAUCGGAAGUACAAUGAUGGAGAUUGAUGGUGACAAAGGCAAACAAGGCGGGCCCACCUACUACAUAGACACCAAUGCCCUCCGCGUGCCCAGGGAGAACAUGGAGGCCAUUUCACCUCUAAAGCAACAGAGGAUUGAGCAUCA	0.338
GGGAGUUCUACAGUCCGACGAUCUUUCUAUUGCAGCAAACGAUGCUAAGAAUUAAGGAUCCUAAGAAGUCCCUGGAUUUUUAUACGAGGGUUCUUGGACUGACCCUCCUGCAGAAGCUUGAUUUUCCCAUUAUGAAGUUCUCGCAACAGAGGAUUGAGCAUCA	0.263
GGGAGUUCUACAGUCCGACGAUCUUGCUACUGACUCCCUGGGUCAAGUUCCUGUGGGAAUCUUACAGGCAGUGUUUGGACCUUCUUCGAAACAAUUCUAGAGUAGAGCGCCUUUACCAUGAUAUCGCCCAGCAAGCUUUCAAACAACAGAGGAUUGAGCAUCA	0.205
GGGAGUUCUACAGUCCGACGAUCGGGGAGAAACCUUACGAGUGUGUGCAGUGUGGGAAAUCCUACAGUCAGAGCUCAAACCUUUUUAGACAUCAGAGAAGACACAAUGCAGAAAAACUUUUGAAUGUUGUGAAGGUUUAAGAACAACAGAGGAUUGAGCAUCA	0.383
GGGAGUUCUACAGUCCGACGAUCACUCUUGACUCUUUCCAUCCUCUUCCUUUCCCUCUUGAUAUUCAAGGCCAUGAAUCCCAAAAUAACAAUCUAUCUUAGAGGCUAGCAAACAGAGGUGGAAUAAAUCCACCCCAGUGUCUCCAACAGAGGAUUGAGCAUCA	0.568

Sample 4
Target: Histone acetyltransferase KAT6A, both winged helices, GST fusion (KAT6A, Homo sapiens, UniProt Q92794, residues 1-181)
Method: protein binding microarray
Molecule type: double-stranded DNA, one strand shown
Matrix: in vitro
Concentration: not given
Setting: 8-mer, flanks averaged, mean of 2 arrays, mostly near background
Relative to: not given
Direction: higher = stronger binding
Target sequence (chain): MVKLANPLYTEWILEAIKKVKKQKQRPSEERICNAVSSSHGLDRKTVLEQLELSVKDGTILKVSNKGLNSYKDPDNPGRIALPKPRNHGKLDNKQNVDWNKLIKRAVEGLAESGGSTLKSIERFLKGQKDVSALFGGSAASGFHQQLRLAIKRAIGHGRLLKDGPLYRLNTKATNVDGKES
Strand	E-score
CTGACACC	-0.11
TGGGCCCA	-0.132
CGCCGGCG	0.43
ACAAGTGT	-0.104
AGGGAAGA	-0.193
ACTGAAGA	-0.0315
ATGTCCGA	0.0903
AGGCTATA	-0.154
ATAGCACA	0.00122
TCGATTAA	0.00418
ATTTGATA	-0.143
AACTTTTC	-0.0582
CCGTGAAG	0.196
GACCCTCC	0.00344
ATCCCCGA	0.0572
AATCCATC	-0.252
GGATTTGA	-0.0374
AATGCGCT	0.191

Sample 5
Target: RNA binding protein fox-1 homolog 2, RRM domain, GST-SBP tag (RBFOX2, Homo sapiens, UniProt O43251-10, residues 100-194)
Method: RNA Bind-n-Seq
Molecule type: RNA
Matrix: in vitro
Concentration: 365 nM
Setting: natural RNA segment, single round, ends assumed
Relative to: no-protein control
Direction: higher = stronger binding
Strand	RBNS enrichment (R)
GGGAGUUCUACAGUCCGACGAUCCUGAUGAUUUUAUAAGAGGUUUCCCCUUUUGCUUAGUUCUCAUUCUCUCUUGCCUGCCGCCAUGUAAGACGUGCCUUUCUGUCAUGCUUGUGAGGCCUCCCCAGCCACGUUGGAAUUCUCGGGUGCCAA	0.712
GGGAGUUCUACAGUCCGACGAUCAGAUGCACCACCCAUGGAGAGGUUUGUCAACACAAAGACAUGGAAGGUUAGAGGUUUGUCAACAAAAAGACAUGGAAGGUUAGGUUUGUCAACACAAAGACAUGGAAGAUUGGAAUUCUCGGGUGCCAA	1.28
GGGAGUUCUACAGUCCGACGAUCCCUUUUAGCUAAAGACAUUCAUUACUAUAGCACUUCCCAGGCAUUGAAGAGGCAGAGUGAUUUAGAGAACGAAAUCAGAACCUGGGAACACCAUGACUACUUCAUUUCUAUGGAAUUCUCGGGUGCCAA	0.468
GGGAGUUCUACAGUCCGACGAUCCUUGGCCACCACAUGGCCAUCCUCAGUGAGGCGCCAUGAACCCUUCUUAGGCCCUCAGGUCCCCAUAGCACUGGGAGGGGGCGCUGGGGACCAUGUGCCCAGGGACUGCAUGGAAUUCUCGGGUGCCAA	3.99
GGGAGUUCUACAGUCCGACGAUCCUUGCCUUCUGAAGUGGCACAAACCUGUGUUUAUAUAUUUAAAAGAUACUCUAGGAUGAUCACUUGUGCUUAGCUUAGCAUUGUAACUCUUUAAGUCUAUAUUUUCCUCAUGGAAUUCUCGGGUGCCAA	0.435
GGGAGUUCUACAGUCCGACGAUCCUAAUUAUAUUGCAAAUUAUUAGGGCUUCAUUGUAAUCUACUUUAUUAAUGAAAAAUGACAAAGCAGUGUACUGAUAAGCCAAGGUGCUUUUGAUCUGUAAUUUCUUCUCUGGAAUUCUCGGGUGCCAA	0.367
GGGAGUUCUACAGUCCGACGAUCUCCACAAGAAGCAUGGGCACCCAGCCAAACUUGAACCUGGAAGGGAGGGUUCCCGGCCUGCAGGUGCUCUUUCCUCUUGGUCCCAAGCAUCUGUGCAGGGUCGUGGGAGCUGGAAUUCUCGGGUGCCAA	2.39
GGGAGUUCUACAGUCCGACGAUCUAAUUAAUUGAAUAUAAUAGGAUACCUAGCAAAUGUUUUCACAAAAGUGAAUCUUUGUGAUUUUCAUUCUAGAAAACAAUGUUUUAAAUCACCCAAAUUUAAUCACAUGUUGGAAUUCUCGGGUGCCAA	0.41

For quick reference, copied from above (sample 1):
Strand	7-mer Z-score
CACUGGG	-0.0101
AUUGAAU	-0.0627
AAAACCU	2.31
CGCGAUC	-0.257
CUAAAUU	0.441
AUGAUAU	-0.106
